Published values from different studies.
Each numbered part is a random draw from the data of one study; scales do not carry over between parts. Substitutions count along the parent as printed.

Sample 1
Target: Interferon regulatory factor 7, full length, phosphomimetic (IRF7, Homo sapiens, UniProt Q92985, residues 1-503, S101K/S471D/S472D/S475D/S476D/S477D/S483D/S484D/S487D)
Chain of UniProt Q92985 (whole entry, unmodified, looked up): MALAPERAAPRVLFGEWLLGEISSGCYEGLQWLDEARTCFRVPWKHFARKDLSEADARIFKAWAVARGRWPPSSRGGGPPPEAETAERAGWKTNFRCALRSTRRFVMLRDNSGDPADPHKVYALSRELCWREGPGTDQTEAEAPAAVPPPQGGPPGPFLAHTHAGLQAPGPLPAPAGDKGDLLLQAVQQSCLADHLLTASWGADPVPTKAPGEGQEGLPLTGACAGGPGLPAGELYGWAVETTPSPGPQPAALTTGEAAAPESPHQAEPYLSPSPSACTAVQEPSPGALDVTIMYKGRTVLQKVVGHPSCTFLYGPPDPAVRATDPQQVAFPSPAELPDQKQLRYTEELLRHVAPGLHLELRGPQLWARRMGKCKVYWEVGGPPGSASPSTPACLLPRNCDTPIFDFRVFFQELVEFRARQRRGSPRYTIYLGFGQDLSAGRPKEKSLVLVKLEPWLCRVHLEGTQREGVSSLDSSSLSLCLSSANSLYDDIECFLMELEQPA
Technique: protein-binding microarray
Molecule type: double-stranded DNA, one strand shown
Matrix: in vitro
Tested at: 250 nM
Setting: 60-bp whole probe
Added: salmon DNA 0.4 mg/ml
Relative to: random background probes
Reading: higher = stronger binding
Measurement: log fluorescence
Constant ends, left off below: GCCTAGCAC … GTCTTGATTCGCTTGACGCTGCTG
Strand = TCATGTTTCCTCTTTCAACTGTGCTAG; value = 2.79 z-score
Strand = CTAGGACTGGGACTGGGTTAGTGCTAG; value = 0.231 z-score
Strand = GACGGTTTCGACACTGGGGAAGTGCTA; value = 4.48 z-score
Strand = TACGATATCAGTATCGAGACGTGCTAG; value = 0.299 z-score
Strand = TTAGATATGAGTATCGATTAGTGCTAG; value = 0.786 z-score
Strand = TTATGTATCGGACTGGGTTAGTGCTAG; value = 0.309 z-score
Strand = TTAGGACTGCTACTGCTTTTGTGCTAG; value = -0.175 z-score
Strand = TTAGGACTGCTTATCCTCTAGTGCTAG; value = 0.114 z-score

Sample 2
Target: Centromere-binding protein 1, full length, N-terminal tag (CBF1, Saccharomyces cerevisiae, UniProt P17106, residues 1-351)
Chain of UniProt P17106 (whole entry, looked up): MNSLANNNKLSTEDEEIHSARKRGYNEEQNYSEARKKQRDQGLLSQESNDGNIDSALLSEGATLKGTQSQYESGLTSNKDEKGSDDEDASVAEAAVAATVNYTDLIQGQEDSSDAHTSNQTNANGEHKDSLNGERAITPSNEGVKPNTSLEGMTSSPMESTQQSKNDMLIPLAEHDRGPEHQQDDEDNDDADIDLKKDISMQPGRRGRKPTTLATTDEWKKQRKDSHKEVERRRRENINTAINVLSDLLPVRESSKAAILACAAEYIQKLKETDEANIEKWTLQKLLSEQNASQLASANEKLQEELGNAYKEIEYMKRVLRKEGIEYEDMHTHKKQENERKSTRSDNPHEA
Technique: protein-binding microarray
Molecule type: double-stranded DNA, one strand shown
Matrix: in vitro
Tested at: 0.8 µM
Setting: whole 60-bp probe, no competitor
Reading: higher = stronger binding
Measurement: fluorescence intensity
Constant ends, left off below: … GTCTTGATTCGCTTGACGCTGCTG
Strand = CTACCCATATGGATGCACGTTGAAAGCACTGTGTTC; value = 570 a.u.
Strand = CTAAACTCTCGCAGTTGTCACGTGCAATTTGATTTC; value = 14800 a.u.
Strand = CTAGAGAAGATCTATCACACGATATCTCCATAGTTC; value = 535 a.u.
Strand = GAATGTTTATGACTTCACGCGACATGTATAGATTAG; value = 704 a.u.
Strand = CTAGAGAAGTACTGATGGCTAATAATTGTTGGATTC; value = 518 a.u.
Strand = GAATCATTTCTATCCCACTCGTGAGTAATGGCTTAG; value = 523 a.u.
Strand = GAAGCATATTGCACTAACGTGAGGTGTACATCATAG; value = 526 a.u.
Strand = GAAAGCATAAACTATCACGTTGAAGATAGCATATAG; value = 780 a.u.

Sample 3
Target: OGT, full length, His-tagged (human)
Technique: phage display, sequencing
Matrix: in vitro
Tested at: 1 µg OGT
Setting: single substitutions, 15-mer displayed peptide, unchanged parent 16.7
Relative to: input library
Reading: higher = stronger binding
Measurement: fold enrichment
Starting sequence: peptide; NSEYMPQYQIIFAHQ
Substitution = Y4F; value = 17.3 fold
Substitution = S2R; value = 11.4 fold
Substitution = A13S; value = 23.7 fold
Substitution = Q15R; value = 16.4 fold
Substitution = M5G; value = 1.03 fold
Substitution = S2Y; value = 15.1 fold
Substitution = P6Q; value = 0.909 fold
Substitution = Y8R; value = 0.594 fold

Further values, each from its own experiment
Starting sequence: PafA, mature enzyme, eGFP fusion (Elizabethkingia meningoseptica, UniProt Q9KJX5); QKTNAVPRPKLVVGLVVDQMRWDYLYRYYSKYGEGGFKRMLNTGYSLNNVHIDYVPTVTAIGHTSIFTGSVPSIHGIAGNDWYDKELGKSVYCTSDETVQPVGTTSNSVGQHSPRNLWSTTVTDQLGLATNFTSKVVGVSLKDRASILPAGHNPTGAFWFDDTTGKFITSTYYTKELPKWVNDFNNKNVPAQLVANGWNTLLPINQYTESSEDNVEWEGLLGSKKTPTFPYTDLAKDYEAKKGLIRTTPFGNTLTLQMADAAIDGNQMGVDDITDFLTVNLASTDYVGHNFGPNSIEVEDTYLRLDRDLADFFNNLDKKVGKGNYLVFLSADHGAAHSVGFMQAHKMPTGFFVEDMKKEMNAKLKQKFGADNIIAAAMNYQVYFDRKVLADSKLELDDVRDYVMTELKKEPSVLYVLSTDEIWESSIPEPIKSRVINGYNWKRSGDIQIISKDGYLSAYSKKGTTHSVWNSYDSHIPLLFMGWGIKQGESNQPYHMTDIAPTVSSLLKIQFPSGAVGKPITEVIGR
Substitution = S108G; target = tungstate, free oxyanion; assay = microfluidic competitive inhibition; test system = in vitro, cell-free expressed; setting = not given, derived from inhibition constants, unchanged parent 2230 nM; how to read = lower = stronger binding; measurement = oxyanion analog dissociation constant; value = 2.34 µM

Excerpt of the above (sample 1):
Strand = TCATGTTTCCTCTTTCAACTGTGCTAG; value = 2.79 z-score
Strand = CTAGGACTGGGACTGGGTTAGTGCTAG; value = 0.231 z-score
Strand = GACGGTTTCGACACTGGGGAAGTGCTA; value = 4.48 z-score
Strand = TACGATATCAGTATCGAGACGTGCTAG; value = 0.299 z-score
